Assay results of several laboratories.
Protocols differ between the studies behind these lines. “And” joins repeats or separate records; there may be more than shown. Numbers after ± are the reported error. In brackets after ≈: the same amount, converted by molar mass.

Compound	test	system	conditions	scale	endpoint	result
CC(=O)N[C@H](CSSC[C@H](N)C(=O)O)C(=O)N[C@H](C)C(=O)N[C@H](CCCNC(=N)N)C(=O)N[C@H](CCCNC(=N)N)C(=O)N[C@H](CCCNC(=N)N)C(=O)N[C@H](C)C(=O)N[C@H](CCCNC(=N)N)C(N)=O	–	male human, plasma	intravenous, 0.5 mg, single dose, healthy volunteers	–	clearance	89 mL/min
CC(C)c1cnc(-c2cc(Cl)ccc2F)cc1Nc1ccncc1C(=O)NC(CO)CO	–	patients, phase I monotherapy	oral, dose not given, grade 4	–	patients with decreased appetite	0%
O=C(CCc1ccc(CNC(C(=O)O)C2CCCCC2)cn1)NO (centres unmarked)	–	healthy male humans	oral, 40 mg once daily, 7 days, median	reference: day 7 over day 1	accumulation ratio AUC	1.02
Cn1cc(-c2ccnc(N)n2)c2ccccc21	LC-MS	human liver microsomes	3 µM, 60 min, added: α-naphthoflavone 2 µM	reference: no inhibitor	remaining parent compound	127%
CC[C@H](C)[C@@H]1NC(=O)[C@H](Cc2ccccc2)NC(=O)[C@@H](NC(=O)[C@H](CCCNC(=N)N)NC(=O)[C@H](Cc2ccccc2)NC(=O)[C@H](Cc2ccccc2)NC(=O)[C@H](CCCCN)NC(=O)[C@H](CO)NC(=O)[C@H](CC(C)C)NC(=O)[C@H](CCCNC(=N)N)NC(=O)[C@H](CCSC)NC(=O)[C@H](C)N)CNC(=O)NCCCC[C@@H](C(=O)N[C@@H](CCCNC(=N)N)C(=O)N[C@@H](CCCCN)C(=O)N[C@@H](CCCCN)C(=O)O)NC(=O)[C@H](CC(C)C)NC1=O	circular dichroism	20% TFE in PBS	200 µM, pH 7.4, 25 °C	–	helicity	9.9%
COc1ccc(/C=C/c2ccc(-c3ccc(C)cn3)nc2)cc1	TCSPC	DMF	–	–	radiative decay rate constant	0.48 ns⁻¹
C=Cn1c2ccc([N+](=O)[O-])cc2c(=O)n1Cc1ccccc1	resazurin	peritoneal macrophages, BALB/c mice	48 h, 10% FBS	–	CC50	5.1 ± 0.2 µM
Cn1c(=O)oc2ccc(-c3ccc(CC(C#N)NC(=O)C4CNCCCO4)c(F)c3)cc21 (centres unmarked)	item: chest pain	human volunteers	oral, dose not given	–	treatment-emergent adverse event incidence	3.7%
C[C@]12C[C@H](c3ccc(S(C)(=O)=O)cc3)C3=C4CCC(=O)C=C4CC[C@H]3[C@@H]1CC[C@@]2(O)C(F)(F)C(F)(F)F	–	rabbit	oral, 1 mg/kg, 0 to 24 h, efficacious exposure, steady state	–	AUC(ss)	126 ng·h/mL
N=C(N)NCCC[C@@H]1NC(=O)[C@H](Cc2c[nH]c3ccccc23)NC(=O)[C@@H](CC2CCCCC2)NC(=O)[C@@H]2CCCN2C(=O)[C@@H](NC(=O)CCc2ccccc2)CCCNC1=O	–	C57BL/6J mouse, plasma brain	intravenous, 1 mg/kg single dose	–	MRT(0-last)	0.64 h
O=C(O)[C@@H]1C[C@@H](O)CN1C(=O)[C@@H]1CCCN1	potentiometric titration	–	37 °C, MAH-1 complex, added: Fe(III)	–	log beta	11.2
CC[C@H](C)[C@H](NC(=O)[C@H](CCCCN)NC(=O)[C@@H](NC(=O)[C@H](CS)NC(=O)[C@H](CCCNC(=N)N)NC(=O)[C@H](CCCNC(=N)N)NC(=O)[C@H](CC(N)=O)NC(=O)[C@H](CCCNC(=N)N)NC(=O)[C@H](CCCNC(=N)N)NC(=O)[C@H](CS)NC(=O)[C@@H](NC(=O)[C@H](CO)NC(=O)[C@@H](NC(=O)[C@@H](NC(=O)[C@H](CS)NC(=O)[C@H](CCCCN)NC(=O)[C@@H](N)CCCNC(=N)N)C(C)C)[C@@H](C)CC)C(C)C)[C@@H](C)CC)C(=O)N[C@@H](CC(C)C)C(=O)N[C@@H](CS)C(=O)N[C@@H](CC(N)=O)C(=O)O	LC/MS	PBS	0.1 mg/mL	reference: LC peak area	two-disulfide form	41%
CC1=C(/C=C/C(=O)N2CCN(C(N)=O)CC2)C(C)(C)CCC1	–	female mice, plasma	oral, 20 mg/kg	–	Cmax	1.45 nmol/g
CC(C)(Sc1cc[n+]([O-])cc1-c1ccc(C#N)c2ccccc12)C(=O)OC1OC(C(=O)O)C(O)C(O)C1O (centres unmarked)	–	plasma	oral, 15 mg, moderate renal impairment	reference: impaired over normal renal function	AUC(0-inf) ratio	241%
O=C([O-])CN1CCN(CC(=O)[O-])CCN(CC(=O)NCC2CCC(C(=O)NC(Cc3ccc4ccccc4c3)C(=O)NCCCCC(NC(=O)NC(CCC(=O)O)C(=O)O)C(=O)O)CC2)CCN(CC(=O)[O-])CC1.[44Sc+3] (centres unmarked)	PET/CT dosimetry, OLINDA/EXM	human, spleen	–	–	organ absorbed dose	0.163 mSv/MBq and 0.064 mSv/MBq and 0.236 mSv/MBq
COC(=O)C(Cc1c[nH]cn1)NC(=O)C1(C)C(O)CCC2(C)C1CCC1(C)C2CC=C2C3C(C)C(C)CCC3(C)CCC21C (centres unmarked)	–	Wistar rat colon homogenate	90 µg/mL, 12 h, 37 °C	–	prodrug hydrolysed	78.1%
CCCC[C@H](NC(=O)CNC(=O)CNC(=O)CN1CCN(CC(=O)O)CCN(CC(=O)O)CCN(CC(=O)O)CC1)C(=O)N[C@H]1CC(=O)NCCCC[C@@H](C(N)=O)NC(=O)[C@H](Cc2c[nH]c3ccccc23)NC(=O)[C@H](CCCNC(=N)N)NC(=O)[C@@H](Cc2ccccc2)NC(=O)[C@H](Cc2c[nH]cn2)NC1=O [gallium-67 labelled]	–	C57 mice, female, B16/F1 melanoma, tumour over muscle	intravenous, 0.037 MBq, 24 h	–	tumour to tissue uptake ratio	25.5
C[C@H](NC(=O)[C@H](C)NC(=O)[C@H](CCCNC(=N)N)NC(=O)[C@H](CCCNC(=N)N)NC(=O)[C@H](CCCNC(=N)N)NC(=O)[C@H](C)NC(=O)[C@H](C)NC(=O)[C@H](CCCNC(=N)N)NC(=O)[C@H](CCCNC(=N)N)NC(=O)[C@H](CCCNC(=N)N)NC(=O)[C@H](CCCNC(=N)N)NC(=O)c1ccc2c(c1)C(=O)OC21c2ccc(O)cc2Oc2cc(O)ccc21)C(=O)N[C@@H](CCCNC(=N)N)C(=O)N[C@@H](CCCNC(=N)N)C(=O)N[C@@H](CCCNC(=N)N)C(=O)N[C@@H](C)C(=O)N[C@@H](C)C(=O)N[C@@H](CCCNC(=N)N)C(=O)N[C@@H](CCCNC(=N)N)C(=O)N[C@@H](CCCNC(=N)N)C(=O)N[C@@H](CCCNC(=N)N)C(=O)O	–	bovine, healthy cartilage explants	30 µM, 24 h, 37 °C, 5-FAM labelled	reference: tissue over bath concentration	cartilage uptake ratio	~360
CN1CCC[C@]1(C)/C=C/S(=O)(=O)NC(=O)Nc1c2c(cc3c1CCC3)CCC2	–	human, urine	oral, 25 mg single dose	–	amount recovered in urine	21.2 mg
COc1ccc2c(c1)c(CC(=O)Nc1nnc(CCCCc3ccc(NC(=O)Cc4cccc(OC(F)(F)F)c4)nn3)[se]1)cn2C	–	water	–	–	aqueous solubility	~0.31 µg/mL (≈ 0.442 µM)
O=C(O)/C=C/c1cccc(S(=O)(=O)Nc2ccccc2)c1	–	human, normal liver function, plasma	intravenous, 400 mg/m^2 belinostat, cycle 1 day -7, geometric mean	reference: metabolite over belinostat	Cmax metabolic ratio	0.0752
O=C(CCC(C(=O)[O-])N1CCN(C(CCC(=O)NCC(O)CO)C(=O)[O-])Cc2cccc(n2)CN(C(CCC(=O)NCC(O)CO)C(=O)[O-])CC1)NCC(O)CO.[153Gd+3] (centres unmarked)	equilibrium dialysis	human plasma	0.01-5 µmol/mL, 2 h, 37 °C	–	plasma protein binding	0.5%
[2H]C([2H])([2H])NC(=O)c1ccc(N2C(=S)N(c3ccc(C#N)c(C(F)(F)F)c3)C(=O)C2(C)C)cc1F	–	human, plasma	oral, 40 mg, single dose, fasted	–	CL/F	272 mL/h
O=C(Cc1ccccc1)Nc1nc2ccccc2n1Cc1ccccc1	shake-flask LC-MS/MS	water	24 h, room temperature	–	aqueous solubility	1.16 µg/mL (≈ 3.4 µM)
COc1cc(NC(C)=O)c2c(c1O)-c1c(OC)c(OC)cc3c1C(C2)N(C)CC3 (centres unmarked)	–	rat liver homogenate	5 µg/mL, time not given, three freeze-thaw cycles	–	remaining compound	101.1 ± 0.7%
Cc1ccc2oc(-c3c4c(N)n[nH]c(=O)c4nn3-c3ccc(NC(=O)/C=C/CN(C)C)cc3)c(C)c2c1	–	mouse, plasma	intravenous, 1 mg/kg	–	MRT	1.36 h

For quick reference, copied from above:
Compound	test	system	conditions	scale	endpoint	result
CC[C@H](C)[C@H](NC(=O)[C@H](CCCCN)NC(=O)[C@@H](NC(=O)[C@H](CS)NC(=O)[C@H](CCCNC(=N)N)NC(=O)[C@H](CCCNC(=N)N)NC(=O)[C@H](CC(N)=O)NC(=O)[C@H](CCCNC(=N)N)NC(=O)[C@H](CCCNC(=N)N)NC(=O)[C@H](CS)NC(=O)[C@@H](NC(=O)[C@H](CO)NC(=O)[C@@H](NC(=O)[C@@H](NC(=O)[C@H](CS)NC(=O)[C@H](CCCCN)NC(=O)[C@@H](N)CCCNC(=N)N)C(C)C)[C@@H](C)CC)C(C)C)[C@@H](C)CC)C(=O)N[C@@H](CC(C)C)C(=O)N[C@@H](CS)C(=O)N[C@@H](CC(N)=O)C(=O)O	LC/MS	PBS	0.1 mg/mL	reference: LC peak area	two-disulfide form	41%
CC1=C(/C=C/C(=O)N2CCN(C(N)=O)CC2)C(C)(C)CCC1	–	female mice, plasma	oral, 20 mg/kg	–	Cmax	1.45 nmol/g
CC(C)(Sc1cc[n+]([O-])cc1-c1ccc(C#N)c2ccccc12)C(=O)OC1OC(C(=O)O)C(O)C(O)C1O (centres unmarked)	–	plasma	oral, 15 mg, moderate renal impairment	reference: impaired over normal renal function	AUC(0-inf) ratio	241%
